Measured values collected from several papers.
A part holds a random share of what one study measured. Positions count from the first letter of the parent shown.

Series 1 — target: JUND, bZIP domain (human); technique: DHFR protein complementation; sample: yeast; reference: wild-type JUN-FOS pair; direction: higher = stronger binding
Setting: single substitutions, most at no-binding floor
Starting sequence: JUN, bZIP domain (human); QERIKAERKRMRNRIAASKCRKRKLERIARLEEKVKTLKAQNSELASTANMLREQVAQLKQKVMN; partner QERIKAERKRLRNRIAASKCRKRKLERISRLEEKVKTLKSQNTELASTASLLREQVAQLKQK
| Substitution | binding fitness |
| --- | --- |
| R30Q | -0.521 natural log |
| R30E | -0.411 natural log |
| A40E | -0.562 natural log |
| Q41H | -0.985 natural log |
| A46K | -0.621 natural log |
| T37E | -0.393 natural log |
| S47A | -0.443 natural log |
| M51E | -0.573 natural log |
| M51H | -0.65 natural log |
| A49F | -1.02 natural log |
| N42Q | -0.833 natural log |
| K36M | -0.654 natural log |
| R53A | -0.877 natural log |
| K36S | -0.864 natural log |
| E54S | -1 natural log |
| V56C | -1.19 natural log |
| M51I | -0.77 natural log |
| A57T | -0.769 natural log |

Series 2 — technique: RNA Bind-n-Seq; form: RNA; sample: in vitro; concentration: 100 nM; reference: input RNA pool; direction: higher = stronger binding
Target: RING finger protein unkempt homolog, zinc fingers 1-6, SBP tag (UNK, Homo sapiens, UniProt Q9C0B0, residues 30-357)
UniProt Q9C0B0, sequence (30-357, looked up): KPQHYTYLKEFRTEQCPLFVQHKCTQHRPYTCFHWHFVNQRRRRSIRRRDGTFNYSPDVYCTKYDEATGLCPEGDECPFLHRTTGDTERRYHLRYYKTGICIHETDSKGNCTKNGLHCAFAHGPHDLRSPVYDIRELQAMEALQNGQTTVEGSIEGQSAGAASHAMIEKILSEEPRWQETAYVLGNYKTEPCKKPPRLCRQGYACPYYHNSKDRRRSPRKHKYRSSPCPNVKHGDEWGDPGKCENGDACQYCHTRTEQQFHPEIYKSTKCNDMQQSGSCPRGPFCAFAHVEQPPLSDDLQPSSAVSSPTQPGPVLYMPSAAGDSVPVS
Setting: RNA with constant flanks, vertebrate orthologous sites, ends assumed
Shared flanks, not repeated: GGGAGUUCUACAGUCCGACGAUC … CAACAGAGGAUUGAGCAUCA
| Sequence | bound/input enrichment |
| --- | --- |
| UCUGUAAGGGAAAAAAAAAAGAGAGUGAGAGAGAGAGGAUAAGAAAAGAACCCGAAUACAUAGAGCUUUUUAAUAGCACUAACCAAUGCCUUUUUUAGAUGUAUUUUUGAUGUAUAUAUC | 0.821 ratio |
| GUCAUCUGAUUGGAUGAAGACUGUCCCAAGUUAUAACCAAACAAAUAGCUCCAUGGACUUCAGAAAUUAUAUGAUGAGAGAUGAGAAUCUGGAACCACUACCCAAAAACUGGGAGAUGGC | 0.355 ratio |
| AUCUCGCGCUCCCCCUGUGAGGGAGUGGGGGGAGCCUGAGGACCCUCGGCUGGUCCAAGCCAGUAUCUGUUUUCUCCUUUUUUUUAAUGGCUGUAUUUAUUAUGACGAUGGCGACUCCCC | 1.04 ratio |
| CAUUGUACCCUGCUGUAUAAUAAACAAUCUUAGACAUUUAUCAACUGUUGAUACAAAUGUUAGUCCCUAACCACUUUUUAUAUGUUUUAAAUUUUUGAAAUUCAAGUGUACCUGCCGUAA | 1.85 ratio |
| GUUGUGACCCAUUUAACAUACACAAAAAACUAGCAAAAAAGAAUUUGCAUGUAAUUGACUUAGAUGAUGCCACUUUUCUGAGUGCGAAAUUCGGAAGACAGCUUGUACCUGGUUGGAAGC | 0.985 ratio |
| GCACAUGCCACUAUCACCAAAAGCAAACUGCCACUUUUCAAAUUUCAUUCAGAGCUGUUUUAGUGUUUCCCAUUCCCUGCCUUUCCCACUACUUUCAAUGAUGAAAUAGCCUCAGUUGUC | 1.9 ratio |
| AAUUACACUAAUACUGAAGUUAAGAUUAAAAGGAUAUCCAAGGUGAUGAUAAAGUGUGUGUUGGUAGUUACUAAAAGAACCUUAGCUGUUAUUGCCUUGUAUUUCUAUCCCUUGUUUCAA | 0.375 ratio |
| ACAUCAUGGGUUACUCUCAUUUCUGUAGCAGGUGGAACAUUUUGCAAAACAUGUAUACACCUAGCUGAGCUGAAUAUAAUAUAUUUUUAUUAGCCUGUAAAUAAAUGUUGUCUUCUGCAU | 0.366 ratio |
| CCCGCUAAACCCCAUUUCUUCUGUUUCAUAGUGCAGAAGUAUUCUUUCUCAGUUAUAUUUUAGUGGACUUGUUUUAAUUUUAGGGAAACUUCCAGUACAGAUACUGUGAGCUUACAUGGA | 2.12 ratio |
| AUUUAAAAUGUAGCUAGUUAUAUUUAACAACCUCAUUUCUGAGUUCCUUUUUCAUUAAAGUAGCUUUCAUUUCUUUUAUUGCAGUUUUAAAAAUAUGAGUAAAUAUAAGGUUUGUGCCAG | 0.328 ratio |
| UGUGAGGGUGGGGGGUGGGGAAGGGAAGAUGUAUGGAUGUUAUUGGCAUUUUUAAGUGUUUAGAGUCUUUUUUUCCCCCCCUUUGUUCUGUUUUGCAUUUUCUCUUUAAUUGGAUGCACU | 1.2 ratio |

Series 3 — technique: protein-binding microarray; form: double-stranded DNA, one strand shown; sample: in vitro; concentration: not given; direction: higher = stronger binding
Target: Protein C-ets-1 (ETS1, Homo sapiens, UniProt P14921, residues 1-441, Y397A, full length assumed)
Setting: k-mer, scored over probes, only values ≥0.25
Construct (chain): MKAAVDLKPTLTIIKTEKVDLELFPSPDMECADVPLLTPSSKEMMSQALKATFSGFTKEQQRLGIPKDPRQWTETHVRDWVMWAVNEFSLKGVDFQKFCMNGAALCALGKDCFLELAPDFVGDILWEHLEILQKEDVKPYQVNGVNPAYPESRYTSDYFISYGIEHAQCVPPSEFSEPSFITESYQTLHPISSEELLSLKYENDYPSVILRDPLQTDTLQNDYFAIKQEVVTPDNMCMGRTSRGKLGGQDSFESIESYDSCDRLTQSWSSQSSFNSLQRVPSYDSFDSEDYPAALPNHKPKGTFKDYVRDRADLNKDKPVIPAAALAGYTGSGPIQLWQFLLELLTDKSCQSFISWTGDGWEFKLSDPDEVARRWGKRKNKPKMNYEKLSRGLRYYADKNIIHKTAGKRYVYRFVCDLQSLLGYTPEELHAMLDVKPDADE
| Sequence | E-score |
| --- | --- |
| AACGCCAA | 0.331 |
| ACAATGGC | 0.323 |
| ACGGCAAC | 0.294 |
| ATATCCGG | 0.398 |
| CCGTTGTC | 0.286 |
| AGGATGTG | 0.257 |
| GCTTCCGA | 0.28 |
| ATTGTCGC | 0.275 |
| ACTTCCGG | 0.49 |
| CGCCCACC | 0.261 |
| TCATGACA | 0.332 |
| ACACAAAA | 0.262 |
| ACATTTCC | 0.318 |
| ACGACAAT | 0.295 |
| CATGTCAC | 0.296 |
| ATGTGTTA | 0.253 |

Further values, each from its own experiment
| Molecule | target | assay | test system | setting | scale | quantity | result |
| --- | --- | --- | --- | --- | --- | --- | --- |
| PhoQ, residues 284 288 289 292 302 303 SLSLLA | PhoP, residues 12 14 15 18 19 LFHKL (Escherichia coli, UniProt P23836) | Sort-seq, refers to: YFP reporter | E. coli | PhoQ-PhoP variant library, with: 10 µM Mg2+ | reference: high Mg2+ state, higher = stronger signaling | fold induction | 1.13 |

A few entries again (series 1):
| Substitution | binding fitness |
| --- | --- |
| K36M | -0.654 natural log |
| R53A | -0.877 natural log |
| K36S | -0.864 natural log |
| E54S | -1 natural log |
| V56C | -1.19 natural log |
| M51I | -0.77 natural log |
